Assay results pooled from the literature.
Every numbered part comes from another study and shows a few of its results, in no order. Positions count from the first letter of the parent shown.

Study 1 — technique: RNA Bind-n-Seq; molecule type: RNA; medium: in vitro; tested at: 365 nM; reference: no-protein control; reading: higher = stronger binding
Target: RNA binding protein fox-1 homolog 2, RRM domain, GST-SBP tag (RBFOX2, Homo sapiens, UniProt O43251-10, residues 100-194)
Setting: natural RNA segment, single round, ends assumed
Residues (chain): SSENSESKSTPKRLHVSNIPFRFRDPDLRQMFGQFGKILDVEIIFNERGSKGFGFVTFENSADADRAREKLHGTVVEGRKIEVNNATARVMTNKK
For `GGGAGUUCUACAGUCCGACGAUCUGUACGAAGGCAGGAUCCUGGGCAAAGUGGAGAGGAUCGAUGAGCCUUGGCCUCCUCGGCGUGCAACCUGGGCAAGCACCUCGGCGUGCACCAUGGAGCCGAAGCCCAGAUGGAAUUCUCGGGUGCCAA`, “RBNS enrichment (R)” read 0.632.
`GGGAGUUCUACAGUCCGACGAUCAGCUUUGCCCCAAGCCAAUCCCUGCUUUUAAAUGACCCGCAGCGGGGAGCUCUGAAGAAGGAGCUCUGAAGGAAAGGAACAUUGUAUCUGGACAGCAAGCAAGCCAUUUCUGGAAUUCUCGGGUGCCAA` — result for “RBNS enrichment (R)”: 0.554.
For `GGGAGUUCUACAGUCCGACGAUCUUAACCAAAAGAUACAGUGAUAUAGCCAUGUACUGUGGGUGGGACAGAUACAGUCUCCUUGGCCUAUAAUGAAACCACUAGGACUUUAUACAGUUUUCCUUAAUUUGUUGUGGAAUUCUCGGGUGCCAA`, “RBNS enrichment (R)” read 0.473.
`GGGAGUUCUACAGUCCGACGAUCGUGACUGGAUAGCAGUUUUAAGUGGCGUUCACCUAGUCAACACGACCGCGUGUGUUGCCCCUGCCCUGGGCUCCCCGCCAUGACAUCUUCACCUUGCAGCUUGUGCUGAGUGGAAUUCUCGGGUGCCAA` — result for “RBNS enrichment (R)”: 0.32.
`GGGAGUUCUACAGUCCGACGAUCGUGUCGGUACUAAAUUGAAUAACGAGUAAAUAAUCUUACUUGGGUAGAGAUGGCCUUUGCCAACAAAGUGAACUGUUUUGGUUGUUUUAAACUCAUGAAGUAUGGGUUCAUGGAAUUCUCGGGUGCCAA` — result for “RBNS enrichment (R)”: 0.599.
`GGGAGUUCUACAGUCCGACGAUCAAUUGUCCCUAAUAGAAAGCCACCUAUUCUUUGUUGGAUUUCUUCAAGUUUUUCUAAAUAAAUGUAACUUUUCACAAGAGUCAACAUUAAAAAAUAAAUUAUUUAAGAACUGGAAUUCUCGGGUGCCAA`: “RBNS enrichment (R)” 0.436.
`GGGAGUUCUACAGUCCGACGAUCCUGCAUCUCCCCUGGCCCCGUUCCCUGCCCUCCUCCCUUCCCUGGGUGACUGCUCUGAGAGGCACUUCACUCACAGGCCUGUGGGAUGCUCCAUGGGGCCCUGCUGGCUCUGGAAUUCUCGGGUGCCAA`: “RBNS enrichment (R)” 0.321.
Under “RBNS enrichment (R)”, `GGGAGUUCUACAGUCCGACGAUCGCCCUAAAACCUAAAUUUCAUUCAUGAAAUUUUUUUCUAAUUUUAAACACCCAGAAUCCCAUGUCCUUUGACUUGCAGUGUAGCUAUCUAGAAUGAAACACUUGCCUUGCUGGAAUUCUCGGGUGCCAA` is recorded as 0.659.

Study 2 — technique: protein-binding microarray; molecule type: double-stranded DNA, one strand shown; medium: in vitro; tested at: 250 nM; setting: 60-bp whole probe; added: salmon DNA 0.4 mg/ml; reference: random background probes; reading: higher = stronger binding; shared flanks, not repeated: GCCTAGCAC … GTCTTGATTCGCTTGACGCTGCTG
Target: Interferon regulatory factor 5, full length, phosphomimetic (IRF5, Homo sapiens, UniProt Q13568-2, residues 1-514, K96S/S451D/S453D/S456D/S462D)
The log fluorescence of `TCAAATTTGCTTTAGTCACTGTGCTAG` is reported as 0.404 z-score.
`CTTGCTTGGTGTCTCTGGCCGTGCTAG` has a log fluorescence of -0.598 z-score.
`ATCACTTTCCACTTGTCTTTGTGCTAG` gave a log fluorescence of 2.13 z-score.
`TTAGGTATCGACAATGGGTTAGTGCTA` has a log fluorescence of 2.56 z-score.
The log fluorescence of `TTAGATATCAGTATCAATTAGTGCTAG` is reported as 2.73 z-score.
With `TTAGGACTGGGGTATCGATTAGTGCTA` the log fluorescence was 1.82 z-score.
`TTAGGTTTCCTTTTTCTTTAGTGCTAG` gave a log fluorescence of 1.59 z-score.
With `TTAGGTATCATACTGCTTTAGTGCTAG` the log fluorescence was 0.745 z-score.
For `TTAGGTATCCTTATCCTTTAGTGCTAG`, the log fluorescence was 0.267 z-score.
With `GACGGTTTCGGACTGGGGTCGTGCTAG` the log fluorescence was 4.49 z-score.
For `CCCACCCTCAGGGAGCCTGTGTGCTAG`, the log fluorescence was -0.97 z-score.

Study 3 — technique: DHFR PCA, deep sequencing; medium: yeast; added: (+)-ABA 1.4 µM; reference: wild-type fitted maximum; reading: higher = stronger binding
Target: ABI1, truncated, D143A, DHFR fusion (Arabidopsis thaliana)
Setting: methotrexate growth selection, single substitutions
Parent: PYL1, truncated, DHFR fusion (Arabidopsis thaliana); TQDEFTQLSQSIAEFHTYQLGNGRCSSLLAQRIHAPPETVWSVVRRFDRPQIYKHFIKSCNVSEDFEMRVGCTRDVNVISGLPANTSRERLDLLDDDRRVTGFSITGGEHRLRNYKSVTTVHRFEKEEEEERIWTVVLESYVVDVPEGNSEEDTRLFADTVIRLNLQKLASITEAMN; partner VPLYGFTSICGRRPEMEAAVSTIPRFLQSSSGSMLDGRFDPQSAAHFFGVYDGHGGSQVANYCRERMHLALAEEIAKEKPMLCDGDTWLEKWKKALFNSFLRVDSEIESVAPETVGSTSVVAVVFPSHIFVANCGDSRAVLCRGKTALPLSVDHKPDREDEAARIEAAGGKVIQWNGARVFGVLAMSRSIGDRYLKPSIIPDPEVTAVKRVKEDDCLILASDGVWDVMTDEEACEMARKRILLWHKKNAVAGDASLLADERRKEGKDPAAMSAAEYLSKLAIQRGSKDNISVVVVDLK
`V161Q` — result for “relative binding score”: 18.4%.
`I33K`: “relative binding score” -12.3%.
Under “relative binding score”, `Q19K` is recorded as 65%.
Under “relative binding score”, `E131G` is recorded as 82.4%.
`E125Y`: “relative binding score” 67.7%.
`D159Q` — result for “relative binding score”: -14.6%.
`R132L`: “relative binding score” 53.6%.
`S42H`: “relative binding score” 25.7%.
`V78E` — result for “relative binding score”: -5.56%.
`A158F`: “relative binding score” -34%.
`T6K`: “relative binding score” 66.4%.
`F157E` — result for “relative binding score”: 4.19%.
`M176A`: “relative binding score” 42.7%.
Under “relative binding score”, `V137A` is recorded as 1%.

Study 4 — technique: protein binding microarray; molecule type: double-stranded DNA, one strand shown; medium: in vitro; tested at: not given; reference: not given; reading: higher = stronger binding
Target: Histone acetyltransferase KAT6A, winged helix 2, GST fusion (KAT6A, Homo sapiens, UniProt Q92794, residues 85-181)
Setting: 8-mer, flanks averaged, mean of 2 arrays, mostly near background
Construct (chain): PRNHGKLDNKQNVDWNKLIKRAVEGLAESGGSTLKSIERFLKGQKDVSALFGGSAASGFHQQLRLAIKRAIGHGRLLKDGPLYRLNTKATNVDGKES
`GTAACGTA` has an E-score of -0.111.
`AACCATGA` gave an E-score of 0.0122.
`GCTTGTAC` gave an E-score of -0.0285.
The E-score of `AGTGGGAA` is reported as 0.0612.
The E-score of `ACGAGGAG` is reported as 0.0223.
For `AGCGAACA`, the E-score was 0.194.
`AGTGCCTC` gave an E-score of 0.0438.
The E-score of `ATTTCTTA` is reported as 0.0766.
`GTCACCAA` gave an E-score of -0.0297.
`GCCCGCTA` has an E-score of 0.025.
`CCATTACA` has an E-score of -0.094.
The E-score of `CAGATTAA` is reported as 0.08.
With `CTTACTGA` the E-score was 0.0654.
`CACCCGCA` gave an E-score of 0.126.
The E-score of `GGAACCGA` is reported as -0.00571.
For `ATCTTATA`, the E-score was 0.0784.
With `AATTCAGT` the E-score was -0.221.
With `CGAGGAAC` the E-score was 0.0952.
`ATAAAAAA` has an E-score of 0.0698.
The E-score of `GGACGGCA` is reported as 0.19.
With `AAGGTCAT` the E-score was -0.16.
`AATTCTCT` gave an E-score of -0.0229.
For `CAGATCTA`, the E-score was -0.0698.
`AATATTTA` gave an E-score of 0.0543.
The E-score of `GGACGGAC` is reported as -0.101.

For quick reference, copied from above (study 3):
`A158F`: “relative binding score” -34%.
`F157E` — result for “relative binding score”: 4.19%.
`I33K`: “relative binding score” -12.3%.
`R132L`: “relative binding score” 53.6%.
`V78E` — result for “relative binding score”: -5.56%.
